Experimental data gathered from unrelated publications.
Lines come from different studies, so protocols differ.
Method: steady-state kinetics
B1: enzyme (Triticum aestivum, UniProt A0A6J4BJH4); chain MPSTESAAGVAWDRRRELQAFDDTKAGVKGLVDAGVTALPPIFRHSPESLESITSSNHVAGAIPTVDLAAPRREDAVALVRHAARTVGFFQVVNHGVPAELMAGMLEGVRRFNEGPAEAKQAIYSRDQARKVRFASNFDLFSSAAANWRDTLFFHLAPDPAPSEELPEAVRDVVTEYGHAVTKVGLSVLELLSESLGLSSDHLRDMDCAENLNAVCQYYPPCPEPYLTWGTKRHTDPGFLTVLLQDGMGGLQVLVDGKTWVDVPPVPGAFIINIGDLLQLVSNDQFRSVEHRVLANKSKDTARVSVASFFNTNIERSTRLYGPITDGRNPPIYRSVTAREFIATFNRIGLDGRSLDQYRLDRDTPTPAVEGCE
B2: enzyme (Plasmodium falciparum, UniProt Q8I302); chain MLVKFRKCGQANIFRSISNVRKIYNVAKNNLKNNKDIERKEKIIILGSGWGGFNFLLNIDFKKYDVTLISPRNYFTFTPLLPCLCSGTLSVNVCTESIRNFLRKKNGYCGNYLQLECTDVFYEDKYINCIDIENNKVKLFYDYLIIAVGAKTNTFNINGVDKYAYFVKDIDDALKIRKKFLDILEKCTLPNISNEEKKKMLHVAVVGGGPTGVEVTAEFADFINKEVKINYKDIFNFISISIIEGGNNLLPTFTQNISDFTKENFHNLNINVLTNYYVIDVDKHSFHIQSSLNKNEKKKLSYGLLIWASGLAQTTLIQKFLKTIPVQANNAILKVDEKLRVIGIPSNNIYAIGDCKKIQPKLLHEHTNEIIKILTGNKLTSEALKLKQSELTKTFPQLSISKWDYEKNKKGEMTPQQFHDYLFEIDKNYKSPTPTAQNAKQEAYYLSNVFNNFIHTNQKFNIPSFIEKWKGSLAYIGNHQVVADLPYYELKGGRFSSTFWKVVYIQLLLSWKSRFHFFIDFIKTKWYGRPFIK
B3: GNS (Homo sapiens, UniProt P15586); chain VFGVAAGTRRPNVVLLLTDDQDEVLGGMTPLKKTKALIGEMGMTFSSAYVPSALCCPSRASILTGKYPHNHHVVNNTLEGNCSSKSWQKIQEPNTFPAILRSMCGYQTFFAGKYLNEYGAPDAGGLEHVPLGWSYWYALEKNSKYYNYTLSINGKARKHGENYSVDYLTDVLANVSLDFLDYKSNFEPFFMMIATPAPHSPWTAAPQYQKAFQNVFAPRNKNFNIHGTNKHWLIRQAKTPMTNSSIQFLDNAFRKRWQTLLSVDDLVEKLVKRLEFTGELNNTYIFYTSDNGYHTGQFSLPIDKRQLYEFDIKVPLLVRGPGIKPNQTSKMLVANIDLGPTILDIAGYDLNKTQMDGMSLLPILRGASNLTWRSDVLVEYQGEGRNVTDPTCPSLSPGVSQCFPDCVCEDAYNNTYACVRTMSALWNLQYCEFDDQEVFVEVYNLTADPDQITNIAKTIDPELLGKMNYRLMMLQSCSGPTCRTPGVFDPGYRFDPRLMFSNRGSVRTRRFSKHLL
B4: protein (Listeria innocua, UniProt A0ACH1DCV7); chain MESLELEQLVKKVLLEKLAEQKEVPTKTTTQGAKSGVFDTVDEAVQAAVIAQNCYKEKSLEERRNVVKAIREALYPEIETIATRAVAETGMGNVTDKILKNTLAIEKTPGVEDLYTEVATGDNGMTLYELSPYGVIGAVAPSTNPTETLICNSIGMLAAGNAVFYSPHPGAKNISLWLIEKLNTIVRDSCGIDNLIVTVAKPSIQAAQEMMNHPKVPLLVITGGPGVVLQAMQSGKKVIGAGAGNPPSIVDETANIEKAAADIVDGASFDHNILCIAEKSVVAVDSIADFLLFQMEKNGALHVTNPSDIQKLEKVAVTDKGVTNKKLVGKSATEILKEAGIACDFTPRLIIVETEKSHPFATVELLMPIVPVVRVPDFDEALEVAIELEQGLHHTATMHSQNISRLNKAARDMQTSIFVKNGPSFAGLGFRGEGSTTFTIATPTGEGTTTARHFARRRRCVLTDGFSIR
B5: enzyme (Candida albicans, UniProt A0A1D8PHX1); chain MISIIQNGISQLSSVSGLDEANLKILICTLLSFPFGIIFKRLPDHDYTLKNIYNVAVSCFYVFGICDLRFGISTLLISATGSYFITRYVRTKSMPWINFLFLMIHMAYSHFHLQFFKEYDPKSIDITGAQMILVMKLSAFGWNIHDGKQPRSTLNDFNKARAITKHPNVLPYIGYVFFYASLLTGPAFDYADYDKFIHGTLFDDVPQDKRPGKNKRRIPRSGVQAFKKFSLGFFWAFLLLQSDKFVTMEYMFSPEFVQYHGLFYRIIYMWILGFTFRLKYYTIWTIAEGACILCGIGYNGVDPETGEFKWNRVQNIDPWSFETGQNVHACLEAWNQNTNIWLKNYVYLRVAKPGKKPGFKSTIFTFTTSAFWHGTRPGYYLTFVVGALMQTVGKYYRRNFRPIFLEADGKTPKPTKIVYDFVCWVNTQLAFGFFVQPFVILGFTKSLECWATVYYWLLWVIAISFFAFSGPFAKSVSKFFKSLQPSYREQQRKSREDKYKLNNEEASIVEQAVGAKLGQDYDIPALGLPPFDVFTDFDQTEVDHDIQHLRKAWTSFRGRRGSITENDFDGLKDAYNNFTNEINDIFNTKKEEFKKEKLNKQN
B6: protein (Phaseolus vulgaris, UniProt V7ASW7); chain MALKDAQDQQDPRLERISSAIRVIPDFPKPGILFQDITTLLLDPKAFKDTIDLFVERYRDQNINVVAGVEARGFIFGPPIALAIGAKFVPMRKPNKLPGEVISEEYSLEYGTDKIEMHVGAVQPGERALVIDDLIATGGTLDAAIKLLERVGVDVVECACLIELPELKGRDRLGDKPLFVLVKVTA
Chain of UniProt Q9WXT2 (whole entry, looked up): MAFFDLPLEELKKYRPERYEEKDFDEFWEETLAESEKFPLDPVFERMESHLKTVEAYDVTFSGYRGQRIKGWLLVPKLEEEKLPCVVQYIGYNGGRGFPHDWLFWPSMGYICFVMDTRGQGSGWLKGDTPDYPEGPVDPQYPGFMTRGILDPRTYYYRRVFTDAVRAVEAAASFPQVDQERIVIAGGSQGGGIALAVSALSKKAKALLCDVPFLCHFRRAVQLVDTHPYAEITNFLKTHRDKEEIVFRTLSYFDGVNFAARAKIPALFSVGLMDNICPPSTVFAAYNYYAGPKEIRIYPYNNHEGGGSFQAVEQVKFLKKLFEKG
Chain of UniProt Q7L266 (whole entry, looked up): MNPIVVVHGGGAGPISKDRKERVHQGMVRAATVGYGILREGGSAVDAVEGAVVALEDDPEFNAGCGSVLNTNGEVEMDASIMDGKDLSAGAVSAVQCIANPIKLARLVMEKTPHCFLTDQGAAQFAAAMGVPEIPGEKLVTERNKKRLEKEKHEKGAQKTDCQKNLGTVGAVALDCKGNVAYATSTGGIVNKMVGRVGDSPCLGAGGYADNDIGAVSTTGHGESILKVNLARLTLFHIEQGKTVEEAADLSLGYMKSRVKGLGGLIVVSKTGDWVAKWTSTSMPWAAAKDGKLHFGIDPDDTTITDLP
Chain of UniProt P07914 (whole entry, looked up): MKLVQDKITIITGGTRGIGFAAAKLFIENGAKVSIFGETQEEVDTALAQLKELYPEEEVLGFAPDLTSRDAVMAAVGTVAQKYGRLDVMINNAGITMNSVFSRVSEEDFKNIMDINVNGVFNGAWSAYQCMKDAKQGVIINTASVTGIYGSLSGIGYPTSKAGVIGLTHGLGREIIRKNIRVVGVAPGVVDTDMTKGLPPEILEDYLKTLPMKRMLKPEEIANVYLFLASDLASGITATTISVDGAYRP
Chain of UniProt Q9HXU0 (whole entry, looked up): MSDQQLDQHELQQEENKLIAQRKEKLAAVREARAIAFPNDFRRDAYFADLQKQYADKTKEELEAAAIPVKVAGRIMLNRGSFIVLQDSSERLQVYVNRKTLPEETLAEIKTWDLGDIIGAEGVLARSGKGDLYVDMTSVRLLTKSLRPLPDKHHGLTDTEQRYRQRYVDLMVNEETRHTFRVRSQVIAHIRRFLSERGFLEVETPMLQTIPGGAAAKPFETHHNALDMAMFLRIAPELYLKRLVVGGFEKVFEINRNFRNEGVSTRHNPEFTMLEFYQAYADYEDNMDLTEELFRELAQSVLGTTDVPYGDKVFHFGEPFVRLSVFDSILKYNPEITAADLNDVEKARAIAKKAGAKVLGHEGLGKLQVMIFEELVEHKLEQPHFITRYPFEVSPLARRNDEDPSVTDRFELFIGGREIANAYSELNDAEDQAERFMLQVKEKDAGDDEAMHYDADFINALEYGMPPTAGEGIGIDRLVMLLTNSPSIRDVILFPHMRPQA

enzyme (Pseudomonas aeruginosa, UniProt Q9HXU0)  Km (NCCCC[C@H](N)C(=O)O; pH 7.5, 37 °C): 45.3 µM
ASRGL1 (Homo sapiens, UniProt Q7L266)  Km (C[C@H](NC(=O)C[C@H](N)C(=O)O)C(=O)O; pH 7.4, 37 °C, NaCl 100 mM): 1000 µM
B1 (enzyme)  Km (O=C1[C@@H](O[C@@H]2O[C@H](CO)[C@@H](O)[C@H](O)[C@H]2O)Oc2ccccc2N1O; pH 7.2, 30 °C): 282 µM
B2 (enzyme)  Km (CC1=CC(=O)c2ccccc2C1=O; pH 8, 100 °C, not purified): 239 µM
B3 (GNS)  Km (CC(=O)N[C@H]1[C@@H](Oc2ccc3c(C)cc(=O)oc3c2)O[C@H](COS(=O)(=O)O)[C@@H](O)[C@@H]1O; pH 5.6, 37 °C, with: lead acetate): 4000 µM
axeA (Thermotoga maritima, UniProt Q9WXT2)  Km (CC(=O)Oc1ccc([N+](=O)[O-])cc1; pH 6.5, 50 °C, temperature uncertain, apparent): 120 µM
B4 (protein)  Km (CC=O; cell extract; not purified, with: CoA): 3900 µM
B5 (enzyme)  Km (CCCCCCCC/C=C\CCCCCCCC(=O)SCCNC(=O)CCNC(=O)[C@H](O)C(C)(C)COP(=O)(O)OP(=O)(O)OC[C@H]1O[C@@H](n2cnc3c(N)ncnc32)[C@H](O)[C@@H]1OP(=O)(O)O; pH 7.4, 37 °C, apparent, not purified): 36.6 µM
BaiA1 (Clostridium scindens, UniProt P07914)  Km (C[C@H](CCC(=O)SCCNC(=O)CCNC(=O)[C@H](O)C(C)(C)COP(=O)(O)OP(=O)(O)OC[C@H]1O[C@@H](n2cnc3c(N)ncnc32)[C@H](O)[C@@H]1OP(=O)(O)O)[C@H]1CC[C@H]2[C@@H]3[C@H](O)C[C@@H]4CC(=O)CC[C@]4(C)[C@H]3C[C@H](O)[C@]12C; pH 8.7, 37 °C, with: NADH): 9.1 µM
B6 (protein)  Km (O=P(O)(O)OC[C@H]1O[C@H](OP(=O)(O)OP(=O)(O)O)[C@H](O)[C@@H]1O; pH 7.5, 37 °C, MgCl2 5 mM, with: adenine 1 mM): 940 µM
protein (Candidatus Protochlamydia amoebophila, UniProt Q6MEN4)  Km (O=c1ccn([C@@H]2O[C@H](COP(=O)(O)OP(=O)(O)OP(=O)(O)O)[C@@H](O)[C@H]2O)c(=O)[nH]1; pH 7, 30 °C, transporter, labelled substrate, apparent, not purified): 676 µM
protein (Actinidia deliciosa, UniProt Q32W37)  Km (CC(C)=CCC/C(C)=C/CC/C(C)=C/CO[P@@](=O)(O)OP(=O)(O)O; pH 7.5, with: FPP 1-100 µM): 2.5 µM

Excerpt of the above:
B5 (enzyme)  Km (CCCCCCCC/C=C\CCCCCCCC(=O)SCCNC(=O)CCNC(=O)[C@H](O)C(C)(C)COP(=O)(O)OP(=O)(O)OC[C@H]1O[C@@H](n2cnc3c(N)ncnc32)[C@H](O)[C@@H]1OP(=O)(O)O; pH 7.4, 37 °C, apparent, not purified): 36.6 µM
BaiA1 (Clostridium scindens, UniProt P07914)  Km (C[C@H](CCC(=O)SCCNC(=O)CCNC(=O)[C@H](O)C(C)(C)COP(=O)(O)OP(=O)(O)OC[C@H]1O[C@@H](n2cnc3c(N)ncnc32)[C@H](O)[C@@H]1OP(=O)(O)O)[C@H]1CC[C@H]2[C@@H]3[C@H](O)C[C@@H]4CC(=O)CC[C@]4(C)[C@H]3C[C@H](O)[C@]12C; pH 8.7, 37 °C, with: NADH): 9.1 µM
